Measured values collected from several papers.
Parts stem from different laboratories: compare values within a part only. Positions count from the first letter of the parent shown.
UniProt P9WI81, sequence (whole entry, looked up): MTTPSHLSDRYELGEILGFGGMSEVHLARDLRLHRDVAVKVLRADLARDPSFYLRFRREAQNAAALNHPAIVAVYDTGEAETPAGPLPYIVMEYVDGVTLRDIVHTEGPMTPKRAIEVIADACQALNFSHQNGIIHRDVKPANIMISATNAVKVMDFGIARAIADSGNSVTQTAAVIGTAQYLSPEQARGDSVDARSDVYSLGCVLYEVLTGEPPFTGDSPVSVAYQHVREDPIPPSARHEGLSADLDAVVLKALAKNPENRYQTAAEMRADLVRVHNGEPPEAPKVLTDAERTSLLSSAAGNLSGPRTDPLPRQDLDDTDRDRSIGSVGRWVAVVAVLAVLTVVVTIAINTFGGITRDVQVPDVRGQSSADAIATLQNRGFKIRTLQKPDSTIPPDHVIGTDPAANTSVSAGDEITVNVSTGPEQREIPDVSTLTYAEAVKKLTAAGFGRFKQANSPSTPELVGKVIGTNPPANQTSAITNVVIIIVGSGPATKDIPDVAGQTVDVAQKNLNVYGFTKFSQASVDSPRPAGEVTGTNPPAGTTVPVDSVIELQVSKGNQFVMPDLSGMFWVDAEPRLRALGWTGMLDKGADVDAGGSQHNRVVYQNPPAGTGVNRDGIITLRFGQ
UniProt Q08881, sequence (whole entry, looked up): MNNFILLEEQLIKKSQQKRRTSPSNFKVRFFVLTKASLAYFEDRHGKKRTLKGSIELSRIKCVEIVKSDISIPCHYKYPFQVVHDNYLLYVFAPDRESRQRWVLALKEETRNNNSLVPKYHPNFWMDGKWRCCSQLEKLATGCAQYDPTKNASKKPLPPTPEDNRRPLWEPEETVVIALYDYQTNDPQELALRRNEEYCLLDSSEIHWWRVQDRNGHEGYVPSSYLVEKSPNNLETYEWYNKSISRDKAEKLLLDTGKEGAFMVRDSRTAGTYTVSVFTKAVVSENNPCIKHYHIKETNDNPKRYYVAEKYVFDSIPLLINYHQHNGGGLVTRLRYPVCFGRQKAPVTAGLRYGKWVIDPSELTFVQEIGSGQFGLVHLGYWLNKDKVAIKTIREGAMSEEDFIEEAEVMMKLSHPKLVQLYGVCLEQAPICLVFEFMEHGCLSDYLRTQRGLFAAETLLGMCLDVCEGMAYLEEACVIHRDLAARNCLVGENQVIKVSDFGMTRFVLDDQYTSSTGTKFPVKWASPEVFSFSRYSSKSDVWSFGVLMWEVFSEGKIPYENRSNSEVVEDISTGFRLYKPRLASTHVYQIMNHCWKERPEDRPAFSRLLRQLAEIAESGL
UniProt Q13163, sequence (whole entry, looked up): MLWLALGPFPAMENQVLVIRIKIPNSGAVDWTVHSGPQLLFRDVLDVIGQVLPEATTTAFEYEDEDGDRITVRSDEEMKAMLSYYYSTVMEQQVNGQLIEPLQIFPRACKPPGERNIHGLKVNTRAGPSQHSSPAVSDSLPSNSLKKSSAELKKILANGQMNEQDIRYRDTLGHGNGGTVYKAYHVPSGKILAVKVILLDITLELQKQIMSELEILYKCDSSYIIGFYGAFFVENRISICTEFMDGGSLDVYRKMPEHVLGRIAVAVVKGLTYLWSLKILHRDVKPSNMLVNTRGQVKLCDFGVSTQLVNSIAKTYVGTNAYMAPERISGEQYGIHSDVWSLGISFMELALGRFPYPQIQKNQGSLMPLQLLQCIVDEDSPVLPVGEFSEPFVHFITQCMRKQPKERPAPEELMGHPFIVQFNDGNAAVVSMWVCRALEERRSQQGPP
UniProt P49137, sequence (whole entry, looked up): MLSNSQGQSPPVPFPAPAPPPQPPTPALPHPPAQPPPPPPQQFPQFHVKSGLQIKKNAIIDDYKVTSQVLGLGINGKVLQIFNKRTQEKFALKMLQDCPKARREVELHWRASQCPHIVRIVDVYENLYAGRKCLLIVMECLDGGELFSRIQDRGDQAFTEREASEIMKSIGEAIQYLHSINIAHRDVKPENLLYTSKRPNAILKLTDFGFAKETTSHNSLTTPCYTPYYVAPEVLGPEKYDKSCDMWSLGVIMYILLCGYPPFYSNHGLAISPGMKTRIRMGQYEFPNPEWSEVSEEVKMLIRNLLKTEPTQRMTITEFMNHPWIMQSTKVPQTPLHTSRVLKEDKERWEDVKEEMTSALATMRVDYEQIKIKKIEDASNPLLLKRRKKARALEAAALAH
UniProt Q9Y243, sequence (whole entry, looked up): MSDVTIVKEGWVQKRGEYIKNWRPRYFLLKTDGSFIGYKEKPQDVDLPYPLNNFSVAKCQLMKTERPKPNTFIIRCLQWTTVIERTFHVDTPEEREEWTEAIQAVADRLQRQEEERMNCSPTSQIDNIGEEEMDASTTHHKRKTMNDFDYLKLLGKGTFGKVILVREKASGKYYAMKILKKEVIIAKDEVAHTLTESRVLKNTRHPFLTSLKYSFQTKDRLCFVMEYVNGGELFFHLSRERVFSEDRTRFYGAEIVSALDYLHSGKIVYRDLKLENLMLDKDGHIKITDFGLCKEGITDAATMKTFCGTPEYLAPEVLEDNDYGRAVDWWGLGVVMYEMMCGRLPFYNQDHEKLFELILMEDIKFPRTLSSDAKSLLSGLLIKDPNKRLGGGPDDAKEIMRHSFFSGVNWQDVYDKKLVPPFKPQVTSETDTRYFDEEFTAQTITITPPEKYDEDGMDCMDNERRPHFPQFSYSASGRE
UniProt Q86UX6, sequence (whole entry, looked up): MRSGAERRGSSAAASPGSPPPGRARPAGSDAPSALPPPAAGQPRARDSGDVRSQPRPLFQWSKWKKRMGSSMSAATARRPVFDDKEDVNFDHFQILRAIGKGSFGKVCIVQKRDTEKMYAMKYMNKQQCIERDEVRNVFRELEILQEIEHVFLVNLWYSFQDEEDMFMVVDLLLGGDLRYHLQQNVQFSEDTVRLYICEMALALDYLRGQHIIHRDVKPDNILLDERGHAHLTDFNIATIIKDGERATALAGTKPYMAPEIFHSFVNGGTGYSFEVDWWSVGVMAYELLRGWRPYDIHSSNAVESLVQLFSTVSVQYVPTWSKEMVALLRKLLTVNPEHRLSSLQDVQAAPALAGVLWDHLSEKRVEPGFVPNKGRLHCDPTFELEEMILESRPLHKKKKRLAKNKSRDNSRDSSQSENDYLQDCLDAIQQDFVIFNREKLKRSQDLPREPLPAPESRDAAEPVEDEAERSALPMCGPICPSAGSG
UniProt P22612, sequence (whole entry, looked up): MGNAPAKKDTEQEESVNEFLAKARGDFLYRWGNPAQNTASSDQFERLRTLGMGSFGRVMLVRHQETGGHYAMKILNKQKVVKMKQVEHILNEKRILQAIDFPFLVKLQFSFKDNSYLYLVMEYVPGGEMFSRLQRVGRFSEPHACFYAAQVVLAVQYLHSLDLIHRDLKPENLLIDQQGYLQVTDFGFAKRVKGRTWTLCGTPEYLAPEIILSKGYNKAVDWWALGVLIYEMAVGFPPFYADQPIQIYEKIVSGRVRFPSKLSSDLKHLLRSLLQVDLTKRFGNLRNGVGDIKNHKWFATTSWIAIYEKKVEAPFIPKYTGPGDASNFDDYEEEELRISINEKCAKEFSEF
UniProt Q13976, sequence (whole entry, looked up): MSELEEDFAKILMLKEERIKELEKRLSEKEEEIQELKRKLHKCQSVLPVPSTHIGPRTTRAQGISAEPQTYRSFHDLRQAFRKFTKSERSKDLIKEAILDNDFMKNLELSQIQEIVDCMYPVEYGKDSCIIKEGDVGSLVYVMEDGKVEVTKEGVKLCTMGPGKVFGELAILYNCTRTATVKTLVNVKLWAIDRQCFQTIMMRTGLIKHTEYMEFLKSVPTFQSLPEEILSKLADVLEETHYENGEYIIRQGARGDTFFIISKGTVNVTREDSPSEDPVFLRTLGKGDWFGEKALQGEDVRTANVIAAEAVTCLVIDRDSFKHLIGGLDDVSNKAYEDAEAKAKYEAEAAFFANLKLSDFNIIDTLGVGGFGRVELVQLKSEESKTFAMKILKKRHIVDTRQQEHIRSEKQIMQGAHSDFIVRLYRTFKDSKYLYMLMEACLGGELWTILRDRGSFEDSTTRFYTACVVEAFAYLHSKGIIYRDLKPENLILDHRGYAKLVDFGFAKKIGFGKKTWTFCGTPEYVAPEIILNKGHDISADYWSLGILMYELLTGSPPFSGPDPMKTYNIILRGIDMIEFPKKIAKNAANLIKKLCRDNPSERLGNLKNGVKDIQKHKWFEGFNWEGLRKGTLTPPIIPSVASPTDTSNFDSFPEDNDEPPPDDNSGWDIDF

Series 1
SMILES: COc1ccc(-c2c(Nc3ccccn3)[nH]c3c(C4=CCCCC4)c(-c4ccccc4)nn3c2=O)cc1
Matrix: plasma
Route: oral
It gave 5440 ng/mL for “plasma concentration, mean” (human patients; 150 mg once daily, 4 h, cycle 1).
cancer patients; 200 mg, 0 h post-dose, single dose — “plasma concentration, mean”: 0 ng/mL.
It gave 1410 ng/mL for “plasma concentration, mean” (cancer patients; 200 mg, 8 h post-dose, single dose).
cancer patients; 400 mg, 0 h post-dose, single dose — “plasma concentration, mean”: 0 ng/mL.
human patients; 200 mg once daily, 4 h, cycle 1 — “plasma concentration, mean”: 6430 ng/mL.
cancer patients; 400 mg, 8 h post-dose, single dose — “plasma concentration, mean”: 1160 ng/mL.
For human patients; 100 mg once daily, 0.5 h, cycle 1: “plasma concentration, mean” read 3300 ng/mL.
human patients; 200 mg once daily, 24 h, cycle 1 — “plasma concentration, mean”: 6430 ng/mL.

Series 2
Compound: O=C(Nc1cnn(-c2csc(C(=O)NC3COC3)c2)c1)Nc1c(F)cccc1Cl
Observed: enzyme activity
Tested at: 5 µM
Relative to: untreated control
The remaining activity was 85.5% (STK32C (Homo sapiens, UniProt Q86UX6)).
The remaining activity was 92.9% (MAPKAPK2 (Homo sapiens, UniProt P49137)).
The remaining activity was 99.3% (MAP2K5 (Homo sapiens, UniProt Q13163)).
For ITK (Homo sapiens, UniProt Q08881): remaining activity read 92.3%.
The remaining activity was 95.5% (ERBB2 (Homo sapiens, UniProt P04626)).
cGMP-dependent protein kinase 1, isoform beta (PRKG1, Homo sapiens, UniProt Q13976) — remaining activity: 100%.
It gave 97% for remaining activity (PRKACG (Homo sapiens, UniProt P22612)).
The remaining activity was 97% (AKT3 (Homo sapiens, UniProt Q9Y243)).

Mixed results
P1: viral docking peptide; PTARRRLLHDLDT; partner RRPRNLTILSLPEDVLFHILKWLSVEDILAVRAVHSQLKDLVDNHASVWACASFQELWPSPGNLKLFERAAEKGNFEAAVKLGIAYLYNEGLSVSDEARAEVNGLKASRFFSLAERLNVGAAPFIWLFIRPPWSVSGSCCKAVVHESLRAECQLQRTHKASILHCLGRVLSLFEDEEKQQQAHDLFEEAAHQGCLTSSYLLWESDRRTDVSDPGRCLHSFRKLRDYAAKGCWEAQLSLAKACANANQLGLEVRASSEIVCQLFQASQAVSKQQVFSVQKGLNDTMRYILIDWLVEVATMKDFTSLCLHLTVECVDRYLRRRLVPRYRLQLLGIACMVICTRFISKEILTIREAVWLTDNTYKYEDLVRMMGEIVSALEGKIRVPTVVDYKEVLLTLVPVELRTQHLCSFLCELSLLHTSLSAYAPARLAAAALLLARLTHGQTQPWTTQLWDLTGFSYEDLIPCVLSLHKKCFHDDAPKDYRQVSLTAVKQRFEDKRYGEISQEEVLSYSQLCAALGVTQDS
Under “normalised enrichment score”, `P1 P1A` is recorded as 2.6 (CCNF, cyclin fold, Cln2 fusion (human); yeast growth competition, sequencing; yeast; strong parent motif; relative to: not given, higher = stronger binding).
For O=C(N1CCS(=O)(=O)CC1)N1C[C@H](c2ccc(OC(F)(F)F)cc2)C[C@H](c2nc(C3CC3)no2)C1, the remaining binding was 100% (pknB (Mycobacterium tuberculosis, UniProt P9WI81); cell-free assay, competition with immobilised ligand; 1 µM).
For CC(C)n1cnc(-c2ccc(F)cc2)c1-c1ncc(C(=O)Nc2ccc(N3CCN(C)CC3)cc2)[nH]1, “patients with Hypothyroidism” read 0% (human, idiopathic pulmonary fibrosis; concentration not given, trial, all arms total).

A few entries again (series 2):
cGMP-dependent protein kinase 1, isoform beta (PRKG1, Homo sapiens, UniProt Q13976) — remaining activity: 100%.
It gave 97% for remaining activity (PRKACG (Homo sapiens, UniProt P22612)).
